Measured values pooled from the literature.
Numbered parts are unrelated; each lists some results of a single study.

Series 1
Target: Replicase polyprotein 1ab, polymerase (rep, Severe acute respiratory syndrome coronavirus 2, UniProt P0DTD1)
Observed: enzyme activity
Mode: inhibitor
Tested at: 20 µM
With `Nc1ccc(C(=O)Nc2cccc(-c3nc(N4CCOCC4)c4oc5ncccc5c4n3)c2)cn1` the inhibition was -6.9%.
`CN1C(=O)N(c2cc(Cl)cc(Cl)c2)C(=O)[C@]12CN(c1ccc(C(=O)O)cn1)C[C@H]2c1ccc(C#N)cc1` gave an inhibition of -3.68%.
`NC(=O)CN1CC[C@@H](NC(=O)[C@@H]2CCCN2)C1=O` has an inhibition of -6.58%.
`NC1=NCN([C@H]2C[C@H](O)[C@@H](CO)O2)C(=O)N1` gave an inhibition of 3.13%.
The inhibition of `CC(ONC(=O)c1cc(C(F)(F)F)cc(C(F)(F)F)c1)C(=O)Nc1ccc(Cl)cc1` (stereo not drawn) is reported as -1.84%.
For `CC1=C(/C=C/C(C)=C/C=C/C(C)=C/C=C/C=C(C)/C=C/C=C(C)/C=C/C2=C(C)C(=O)[C@@H](O)CC2(C)C)C(C)(C)C[C@H](O)C1=O`, the inhibition was 5.39%.
For `COC(=O)CCc1ccc(OCC(O)CNC(C)C)cc1` (stereo not drawn), the inhibition was -4.5%.
For `CC(=O)CCCCn1c(=O)c2c(ncn2C)n(C)c1=O`, the inhibition was -0.73%.
`Cc1c(C(N)=O)cc([N+](=O)[O-])cc1[N+](=O)[O-]` gave an inhibition of -5.68%.
The inhibition of `O=c1[nH]c2ccccc2c(=O)n1CCCN1CCN(c2ccccc2)CC1` is reported as 1.89%.
`CC=C1C(=O)C[C@H]2[C@@H]3CCC4=CC(=O)CC[C@]4(C)[C@H]3CC[C@]12C` has an inhibition of -7.82%.
The inhibition of `NCCc1c[nH]cn1` is reported as 12.2%.
`CO[C@@H]1[C@@H](OC(N)=O)[C@@H](O)[C@H](Oc2ccc3c(O)c(NC(=O)c4ccc(O)c(CC=C(C)C)c4)c(=O)oc3c2C)OC1(C)C` has an inhibition of 29.1%.
The inhibition of `Clc1cccc(C(c2ccc3[nH]cnc3c2)n2ccnc2)c1` (stereo not drawn) is reported as 8.85%.
The inhibition of `Cc1cc(OI)c(C(C)C)cc1-c1cc(C(C)C)c(OI)cc1C` is reported as -1.68%.
`CCc1nc(C(N)=O)c(Nc2ccc(N3CCC(N4CCN(C)CC4)CC3)c(OC)c2)nc1NC1CCOCC1` gave an inhibition of 0.43%.
For `CC(C)(C)n1nc(-c2cccc3ccccc23)c2c(N)ncnc21`, the inhibition was -3.1%.
With `COc1ccnc(C[S+]([O-])c2nc3cc(OC(F)F)ccc3[nH]2)c1OC` (stereo not drawn) the inhibition was 6.02%.
For `COc1ccc(CNC(=O)c2cc(-c3cncc(C)c3)ncc2-c2nccs2)nc1OC`, the inhibition was -2.53%.
`COc1ccc2[nH]c([S+]([O-])Cc3ncc(C)c(OC)c3C)nc2c1` (stereo not drawn) has an inhibition of -7.82%.
With `CCCS(=O)(=O)Nc1ccc(F)c(C(=O)c2c[nH]c3ncc(-c4ccc(Cl)cc4)cc23)c1F` the inhibition was 3.22%.
The inhibition of `Cc1cccc(C)c1-n1c(=O)c2cnc(Nc3ccc(N4CCN(C)CC4)cc3)nc2n2c3ccccc3nc12` is reported as 6.7%.
`COc1ccc(C2(O)OC(=O)C(c3ccc4c(c3)OCO4)=C2Cc2cc(OC)c(OC)c(OC)c2)cc1` (stereo not drawn) has an inhibition of -5.26%.

Series 2
Cell line: HEK-293T/ACE2
Tested at: 10 µM
Time: 16 h
Relative to: vehicle
`Cc1cccc(C)c1NC(=O)C1CCCCN1C` (stereo not drawn) has a viability of 100%.
The viability of `CCN(CCO)CCCC(C)Nc1ccnc2cc(Cl)ccc12` (stereo not drawn) is reported as 104%.
With `Cc1ccc(Sc2ccccc2N2CCNCC2)c(C)c1` the viability was 101%.
For `CC1(C)S[C@@H]2[C@H](NC(=O)Cc3ccccc3)C(=O)N2[C@H]1C(=O)O`, the viability was 101%.

Series 3
Target: Replicase polyprotein 1ab, main protease (rep, Severe acute respiratory syndrome coronavirus 2, UniProt P0DTD1)
Observed: enzyme activity
Mode: inhibitor
Tested at: 20 µM
Notes: primary screen
For `CC(C)=CCC/C(C)=C/CC/C(C)=C/CC/C(C)=C/CC1=C(C)C(=O)c2ccccc2C1=O`, the inhibition was 26.3%.
With `N=C(N)N=Nc1ccc(NNC(=N)S)cc1` the inhibition was 97.5%.
The inhibition of `CCCC[C@H](NC(=O)[C@@H]1[C@@H]2[C@H](CN1C(=O)[C@@H](NC(=O)NC1(CS(=O)(=O)C(C)(C)C)CCCCC1)C(C)(C)C)C2(C)C)C(=O)C(=O)NC1CC1` is reported as 76.1%.
For `CO/N=C(\C(=O)N[C@@H]1C(=O)N2C(C(=O)O)=C(CSC(=O)c3ccco3)CS[C@H]12)c1csc(N)n1.Cl`, the inhibition was 83.8%.
`O=NN(CCCl)C(=O)NC1CCCCC1` gave an inhibition of 62%.

Series 4
Target: Histone acetyltransferase KAT6A, winged helix 2, GST fusion (KAT6A, Homo sapiens, UniProt Q92794, residues 85-181)
Method: protein binding microarray
Form: double-stranded DNA, one strand shown
Matrix: in vitro
Tested at: not given
Notes: 8-mer, flanks averaged, mean of 2 arrays, mostly near background
Relative to: not given
Direction: higher = stronger binding
Residues (chain): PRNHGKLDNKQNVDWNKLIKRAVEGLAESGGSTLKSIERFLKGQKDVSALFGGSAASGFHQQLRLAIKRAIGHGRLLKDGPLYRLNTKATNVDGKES
The E-score of `AGGGAGAA` is reported as 0.0882.
`ATTTGGTC` gave an E-score of 0.0438.
The E-score of `CTTTTGAA` is reported as 0.112.
`AAATTATG` gave an E-score of 0.0617.
The E-score of `CACGAATC` is reported as -0.0215.
With `AAACCCAA` the E-score was 0.14.
With `GTACAGAA` the E-score was -0.0571.
The E-score of `CTCTTAGC` is reported as -0.0161.

Series 5
Target: Ras GTPase-activating protein-binding protein 1, full length (G3BP1, Homo sapiens, UniProt Q13283)
Sequence of UniProt Q13283 (whole entry, looked up): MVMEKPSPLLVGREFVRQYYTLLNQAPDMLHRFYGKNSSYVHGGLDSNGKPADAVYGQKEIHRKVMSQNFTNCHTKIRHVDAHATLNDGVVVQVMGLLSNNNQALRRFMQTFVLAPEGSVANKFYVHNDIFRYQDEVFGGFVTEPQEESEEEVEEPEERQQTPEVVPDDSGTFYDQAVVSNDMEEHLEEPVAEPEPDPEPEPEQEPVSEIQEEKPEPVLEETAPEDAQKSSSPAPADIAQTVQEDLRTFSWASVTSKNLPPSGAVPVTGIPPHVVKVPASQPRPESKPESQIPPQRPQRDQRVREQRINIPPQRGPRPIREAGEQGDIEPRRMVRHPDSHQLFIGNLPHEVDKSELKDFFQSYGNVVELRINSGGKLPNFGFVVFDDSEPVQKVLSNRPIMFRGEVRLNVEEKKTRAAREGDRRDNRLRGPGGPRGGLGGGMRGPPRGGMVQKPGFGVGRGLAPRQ
Method: RNA Bind-n-Seq
Form: RNA
Matrix: in vitro
Tested at: 200 nM
Notes: whole 134-nt RNA, ends assumed
Added: 150 mM KCl
Relative to: input library
Direction: higher = stronger binding
With `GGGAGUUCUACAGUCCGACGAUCAGUCCUGUGCUACACAUCGUAUGUACCGAAUCGGAAAAAGGUUUUUGGAAAAAAAGGAAAGUAUUAUGUUACGCCGUUCGGAUCUGCACUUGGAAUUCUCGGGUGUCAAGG` the log2 enrichment was -1.69.
`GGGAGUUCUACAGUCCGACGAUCAGUCCUGUGCUACACAUCGUAUGUACCGAAUCGGGUUUGGGUUUUUUUGGGUUUGGGAAAGUAUUAUGUUACGCCGUUCGGAUCUGCACUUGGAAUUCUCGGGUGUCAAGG` has a log2 enrichment of -0.0705.
With `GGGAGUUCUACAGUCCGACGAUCUGGACUGCCUAUGGAAGAAGAAGUUCAAGAAGGAGCACGAGGAGUUUGAGACCAUGGAGAACGUGAACCGCCUUCUUCUGGAGAACGUCCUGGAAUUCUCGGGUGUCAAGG` the log2 enrichment was -0.554.
`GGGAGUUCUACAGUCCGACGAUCCCUCAAGUCCUGUGCUACACAUCGUAUGUACCGAAUCGGGCGGCGGGGCGGGAAAGUAUUAUGUUACGCCGUUCGGAUCUGCACUUCCAGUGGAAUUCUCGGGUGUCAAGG` gave a log2 enrichment of 0.962.
The log2 enrichment of `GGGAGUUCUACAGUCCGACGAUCAGUCCUGUGCUACACAUCGUAUGUACCGAAUCGGCCCCCCGGCCCCCCGGCCCCCCGGAAAGUAUUAUGUUACGCCGUUCGGAUCUGCACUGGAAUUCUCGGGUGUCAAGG` is reported as -0.0269.
`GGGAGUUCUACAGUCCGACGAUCUAUCAGGAGGGCAGACUUCAAAAGCUACUAAAAAUGAACGGCCCUGAAGAUCUUCCCAAGUCCUAUGACUAUGACCUUAUCAUCAUUGGAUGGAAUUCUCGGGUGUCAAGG` has a log2 enrichment of -1.08.
With `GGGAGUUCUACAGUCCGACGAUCGUCCUGUGCUACACAUCGUAUGUACCGAAUCGGGGAAAAAGGGAAAAAGGGAAAAAGGAAAGUAUUAUGUUACGCCGUUCGGAUCUGCACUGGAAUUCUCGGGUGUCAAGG` the log2 enrichment was -0.441.
`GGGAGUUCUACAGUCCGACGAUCCACAGACAACACGCACCCACACAGACACAGAGGCAAGGGGUUGGGAUGGGGACAGGGUGCACAGCAGGGCGGGGUAGGACCCCAGCCCCUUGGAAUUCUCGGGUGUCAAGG` has a log2 enrichment of 1.92.

A few entries again (series 4):
`ATTTGGTC` gave an E-score of 0.0438.
`AAATTATG` gave an E-score of 0.0617.
With `AAACCCAA` the E-score was 0.14.
